# Assay results gathered from unrelated publications.
# Each numbered part is a random draw from the data of one study; scales do not carry over between parts.

# Study 1 — technique: aptamer microarray, sandwich; molecule type: DNA with 2'F-ANA; medium: in vitro; concentration: 200 nM; together with: Cy3 exosite-II aptamer, 400 nM; direction: higher = stronger binding; oligonucleotide: GGTTGGTGTGGTTGG
# Target: Prothrombin, mature alpha-thrombin (F2, Homo sapiens, UniProt P00734)
# Setting: whole 15-mer aptamer, many near background
Modification,mean fluorescence intensity [a.u.]
2'F-ANA at 3 8 11 12 13 15,1260
2'F-ANA at 1 2 3 4 8 10 13 14 15,67.3
2'F-ANA at 1 3 4 5,57.7
2'F-ANA at 4 5 7 8 9 12 13 15,97.4
2'F-ANA at 1 3 4 5 6 8 11,55.1
2'F-ANA at 1 4 7 10 11 12 13 14,49.1
2'F-ANA at 2 4 5 8 9 10 13 14,47.4
2'F-ANA at 2 3 6 8 10 12 15,394
2'F-ANA at 1 2 3 6 7 14 15,71.5
2'F-ANA at 1 2 3 6 9 10 12 13 14 15,55.9
2'F-ANA at 2 4 5 6 7 13 14 15,58.9
2'F-ANA at 1 2 3 7 9 10 11 15,62
2'F-ANA at 4 7 9 12,560
2'F-ANA at 1 3 4 8 10 12,86
2'F-ANA at 4 5 6 7 9 15,82.1
2'F-ANA at 2 3 4 6 7 10 11 14 15,154
2'F-ANA at 1 4 8 9 11 13 14 15,50.5
2'F-ANA at 2 3 4 5 8 9 10 12 13 14 15,47
2'F-ANA at 2 4 5 6 7 8 9 10 12 13 14,69.7
2'F-ANA at 1 5 6 7 8 11 14 15,77.5
2'F-ANA at 3 4 5 6 7 9 15,91.2

# Study 2 — technique: universal PBM; molecule type: double-stranded DNA, one strand shown; medium: in vitro; concentration: 600 nM; direction: higher = stronger binding
# Target: Sal-like protein 4, full length isoform A (SALL4, Homo sapiens, UniProt Q9UJQ4, residues 1-1053)
# Sequence of UniProt Q9UJQ4 (whole entry, looked up): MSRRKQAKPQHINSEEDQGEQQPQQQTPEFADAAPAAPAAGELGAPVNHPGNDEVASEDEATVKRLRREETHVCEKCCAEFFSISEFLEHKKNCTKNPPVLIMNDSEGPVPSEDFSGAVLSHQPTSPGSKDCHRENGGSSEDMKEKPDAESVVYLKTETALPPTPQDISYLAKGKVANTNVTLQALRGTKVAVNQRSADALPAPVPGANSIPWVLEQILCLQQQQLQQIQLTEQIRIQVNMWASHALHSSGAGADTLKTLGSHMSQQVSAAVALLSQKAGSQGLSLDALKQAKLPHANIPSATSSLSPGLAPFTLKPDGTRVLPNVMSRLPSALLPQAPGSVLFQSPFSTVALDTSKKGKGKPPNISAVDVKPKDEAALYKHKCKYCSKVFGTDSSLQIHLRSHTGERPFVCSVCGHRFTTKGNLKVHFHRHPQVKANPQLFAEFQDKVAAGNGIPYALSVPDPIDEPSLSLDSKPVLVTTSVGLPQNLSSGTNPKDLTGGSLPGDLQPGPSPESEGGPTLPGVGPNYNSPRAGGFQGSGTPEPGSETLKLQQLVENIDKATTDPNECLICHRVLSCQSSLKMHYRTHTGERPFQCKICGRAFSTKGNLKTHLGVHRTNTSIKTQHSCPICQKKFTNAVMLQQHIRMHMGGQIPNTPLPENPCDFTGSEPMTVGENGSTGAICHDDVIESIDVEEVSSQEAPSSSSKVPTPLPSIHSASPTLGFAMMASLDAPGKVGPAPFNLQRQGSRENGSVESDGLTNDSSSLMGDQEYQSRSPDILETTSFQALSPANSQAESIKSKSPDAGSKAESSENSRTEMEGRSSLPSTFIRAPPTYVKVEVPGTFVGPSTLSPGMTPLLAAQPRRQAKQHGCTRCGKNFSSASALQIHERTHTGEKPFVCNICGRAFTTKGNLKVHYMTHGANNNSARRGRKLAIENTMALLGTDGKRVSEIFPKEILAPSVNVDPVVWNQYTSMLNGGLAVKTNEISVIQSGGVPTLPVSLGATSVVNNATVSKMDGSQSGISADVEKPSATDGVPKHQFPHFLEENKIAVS
# Setting: 8-mer, flanks averaged, mean of replicates
Oligonucleotide,E-score
AACAAAAA,0.349
ACGCGAGA,-0.0701
TCCAGCCA,-0.313
CGCAGTAA,0.11
AAGGGGGT,-0.181
CTGACCCA,-0.16
GACTACAC,0.13
AGGGCGTC,-0.245
CGTCATTA,0.0434
GATTAGAC,0.101
CTGGCGCC,-0.361
CAAAATGC,0.141
AAACGACT,0.035
AGGGCTAT,-0.187
CGGGCCCC,-0.437
CCCGACCC,-0.415
ATTTAATG,0.307
TAAAAACA,0.278

# Study 3 — technique: protein binding microarray; molecule type: double-stranded DNA, one strand shown; medium: in vitro; concentration: not given; baseline: not given; direction: higher = stronger binding
# Target: Histone acetyltransferase KAT6A, both winged helices, GST fusion (KAT6A, Homo sapiens, UniProt Q92794, residues 1-181)
# Setting: 8-mer, flanks averaged, mean of 2 arrays, mostly near background
# Target sequence (chain): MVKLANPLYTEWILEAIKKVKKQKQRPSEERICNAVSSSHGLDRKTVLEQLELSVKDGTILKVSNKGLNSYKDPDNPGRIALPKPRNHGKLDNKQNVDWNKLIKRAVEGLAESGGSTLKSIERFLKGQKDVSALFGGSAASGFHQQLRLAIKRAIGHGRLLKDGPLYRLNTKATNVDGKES
Oligonucleotide,E-score
ATACCAAG,0.0226
GGTGCGAA,0.0532
AACTGCAA,-0.0527
GGTATCTA,0.114
CCCACTAG,-0.153
TAGCATGA,-0.24
CTTTCTGA,-0.139
CGGATCAC,0.0511
AAACTTCT,-0.0112
AAAGTTGG,-0.292
CGCCCTCC,0.129
ACTCACCC,-0.12
TGCTGGAA,-0.075
GTGATACA,-0.0658
ATGCATAG,-0.135
CTCCTCTA,-0.201
CAGACATA,0.0283
GTATAGGA,-0.0859
ACTTTCCT,-0.151
ATTCGGAA,0.0686
ACGCACTA,0.114
CGGCAACC,0.282
AGCTATAG,-0.13
GTCGCCGA,0.257
AAATCGCG,0.15

# Study 4 — technique: RNA Bind-n-Seq; molecule type: RNA; medium: in vitro; concentration: not given; baseline: input RNA pool; direction: higher = stronger binding
# Target: RING finger protein unkempt homolog, zinc fingers 1-6, GST-SBP tag (UNK, Homo sapiens, UniProt Q9C0B0, residues 30-357)
# Setting: RNA with constant flanks, human-mouse chimeric sites, ends assumed
# Target sequence (chain): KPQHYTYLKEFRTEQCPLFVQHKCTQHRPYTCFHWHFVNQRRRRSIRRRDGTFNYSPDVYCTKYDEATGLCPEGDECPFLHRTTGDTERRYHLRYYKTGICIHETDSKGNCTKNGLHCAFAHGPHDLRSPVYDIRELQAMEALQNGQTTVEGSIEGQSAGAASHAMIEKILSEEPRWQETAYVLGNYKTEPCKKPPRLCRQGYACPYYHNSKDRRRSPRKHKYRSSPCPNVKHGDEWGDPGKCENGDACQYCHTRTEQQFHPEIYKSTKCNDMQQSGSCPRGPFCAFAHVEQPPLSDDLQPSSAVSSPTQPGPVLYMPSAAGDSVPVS
Oligonucleotide,bound/input enrichment [ratio]
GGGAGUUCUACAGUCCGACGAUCGAUCAUGGAACCAGAAUAGAAAUGAAGAUGAGAUUACCCAGACGAGCCAAAACAGCUGCGCUACAGAAAAAGUAAACUAACCUUGCAGAGUUCCUUAAUGAAGAUACAAGUUAAGAGAGCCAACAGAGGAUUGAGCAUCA,0.655
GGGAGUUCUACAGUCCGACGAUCUGUGCAUAUGAUGCUUGAGAUGGUUUUUGCAGAUGCAGAAAUCGCUGCAAGGUAAUCACAAUAGAUAAAAGUGGUAUUUUAAACCUUUGAAAUAAAUGGAUGUAACUGUACGUUGGUACACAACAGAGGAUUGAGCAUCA,0.777
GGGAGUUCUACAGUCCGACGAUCGAUCCACAGUGGUCUGAGGAGCAACUCAUUGCUGCAAAAUUCUGUUUUGCUGGCCUUCUUAUAGGCCAGACUGAAGUGGAUAUCAUGAGUCAUGCCACACAAGCUAUUUUUGAAAUUCUGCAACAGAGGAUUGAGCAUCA,0.125
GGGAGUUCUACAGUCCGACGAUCGCUGAAAAUGAAGAAGAGGCAGCUGAUGUCUGGUACAACUUGGGACACAUAGCUGUGGGAAUAGGAGAUACAAACUUGGCCCACCAAUGCUUCAGGCUGGCCCUGGUCCACAACAACCACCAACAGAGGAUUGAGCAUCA,0.274
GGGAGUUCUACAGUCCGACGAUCAAAGAACCUCUCUCUGAUGAAGAUGAGGAAGACAAUGAUGAUGUUGAACCCAUUUCUGAAUUUCGAUUUGUGCCUAGUGAUAAGUCAGCAUUGGAGGCAAUGUUCACAGCAAUGUGUGAGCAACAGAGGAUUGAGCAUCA,0.282
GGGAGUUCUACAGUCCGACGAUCAGGAGGAGGUUAAAGGGUGAGAGUGGGGUGGAAGACUGUGUCAUGGCCCUAGAAACCCUGUUCAGUGUCCUGCUUUCUCUGUGCAGACUUAUGGCUCCUUACACGCCCUUUCUGACUGAGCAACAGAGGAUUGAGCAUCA,0.0466
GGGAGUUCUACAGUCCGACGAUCCCAAUCGUGGAGCAGUACUUGAAGACAAAGAAAAAUUCUAGUCAUUUAAUCAUCAAGUACAUUAGCUGCCGCCUGCUGACACUCAUCAUUAUACUGUUAGCGUGUAUCUACCUGGGCUAUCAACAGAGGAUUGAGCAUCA,0.467
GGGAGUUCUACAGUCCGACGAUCCAGACUGUGUCAUACUUUGUAGCAAGACACAUCAGACUUACAGAGCACCUGGCCACAUUCUAGGUUUGUGUUAUUUCUCAGCUAUGGAUAUGAUCAAAUGAGAACACUGCUUAACUAAUGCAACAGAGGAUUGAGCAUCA,0.158
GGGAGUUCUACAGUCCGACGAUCUACAUUUUAUUGUUGAGGUUUGUAUUUAUAUAUUCUUGUAGUGUCUGCUUGCCUGUGACUUCUGGUAAAAUAAAAUAAGCCUUUGAAAAUAUUUUAGCAUGGUAUUUAACAUUUUCUAAACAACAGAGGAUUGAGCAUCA,2
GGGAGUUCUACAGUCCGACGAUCUAAGUCCUGUGCCAGCACUUCGCUCAUAAAGUUUUAAAUUCUGGACCAAUAGUGUUUAUCUUUAGAAUAUUGUAUCCAAUACUUUGCGUACUAUGUGACUCACUCUUACUGAUAAUAAAACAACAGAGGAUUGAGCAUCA,9.22
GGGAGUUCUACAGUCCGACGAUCGUACUGCAACAGCAGGGAAAACUGCAGGAAGCUCUGAUGCACUAUAAGGAGGCUAUUCGAAUCAGUCCUACCUUUGCUGAUGCCUACUCUAAUAUGGGAAACACUCUAAAGGAGAUGCAGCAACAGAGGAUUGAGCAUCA,0.154

# A few entries again (study 1):
Modification,mean fluorescence intensity [a.u.]
2'F-ANA at 1 4 7 10 11 12 13 14,49.1
2'F-ANA at 1 3 4 8 10 12,86
2'F-ANA at 2 4 5 6 7 13 14 15,58.9
2'F-ANA at 1 4 8 9 11 13 14 15,50.5
2'F-ANA at 2 4 5 8 9 10 13 14,47.4
2'F-ANA at 1 2 3 6 7 14 15,71.5
2'F-ANA at 1 3 4 5 6 8 11,55.1
2'F-ANA at 1 3 4 5,57.7
2'F-ANA at 2 3 4 5 8 9 10 12 13 14 15,47
2'F-ANA at 2 3 4 6 7 10 11 14 15,154
2'F-ANA at 2 3 6 8 10 12 15,394
2'F-ANA at 3 8 11 12 13 15,1260
